Measured values collected from several papers.
Protocols differ between the studies behind these lines. ± marks the error that the study gave.
DDR2: Discoidin domain-containing receptor 2 (DDR2, Homo sapiens, UniProt Q16832)
Chain of UniProt Q16832 (whole entry, looked up): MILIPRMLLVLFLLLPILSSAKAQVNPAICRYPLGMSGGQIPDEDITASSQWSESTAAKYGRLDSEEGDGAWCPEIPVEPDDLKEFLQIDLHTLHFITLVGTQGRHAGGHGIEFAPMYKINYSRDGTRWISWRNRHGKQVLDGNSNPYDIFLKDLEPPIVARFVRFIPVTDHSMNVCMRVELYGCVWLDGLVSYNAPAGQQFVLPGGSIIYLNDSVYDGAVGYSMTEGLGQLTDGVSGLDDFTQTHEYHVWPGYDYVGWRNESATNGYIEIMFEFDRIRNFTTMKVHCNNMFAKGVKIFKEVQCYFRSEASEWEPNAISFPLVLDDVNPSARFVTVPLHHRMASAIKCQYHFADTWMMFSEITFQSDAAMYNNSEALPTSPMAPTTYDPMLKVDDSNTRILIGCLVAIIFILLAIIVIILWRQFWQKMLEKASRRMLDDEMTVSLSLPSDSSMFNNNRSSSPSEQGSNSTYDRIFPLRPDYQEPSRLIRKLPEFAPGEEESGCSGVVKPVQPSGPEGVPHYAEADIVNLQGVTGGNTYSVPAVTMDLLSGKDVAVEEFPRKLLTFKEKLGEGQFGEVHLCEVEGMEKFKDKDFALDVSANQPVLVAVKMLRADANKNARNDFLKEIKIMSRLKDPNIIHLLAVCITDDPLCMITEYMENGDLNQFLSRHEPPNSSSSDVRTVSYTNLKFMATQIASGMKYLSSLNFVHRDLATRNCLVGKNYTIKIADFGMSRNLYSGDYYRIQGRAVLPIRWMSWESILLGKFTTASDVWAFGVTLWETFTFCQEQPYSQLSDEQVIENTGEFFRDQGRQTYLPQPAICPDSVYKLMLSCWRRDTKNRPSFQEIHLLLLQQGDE
VKORC1: Vitamin K epoxide reductase complex subunit 1 (VKORC1, Homo sapiens, UniProt Q9BQB6)
Chain of UniProt Q9BQB6 (whole entry, looked up): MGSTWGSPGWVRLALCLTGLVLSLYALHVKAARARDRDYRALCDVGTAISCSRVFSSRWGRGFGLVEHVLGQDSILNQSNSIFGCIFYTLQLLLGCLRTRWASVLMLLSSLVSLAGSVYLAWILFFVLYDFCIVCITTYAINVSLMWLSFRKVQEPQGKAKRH
CDK4: Cyclin-dependent kinase 4 (CDK4, Homo sapiens, UniProt P11802)
Chain of UniProt P11802 (whole entry, looked up): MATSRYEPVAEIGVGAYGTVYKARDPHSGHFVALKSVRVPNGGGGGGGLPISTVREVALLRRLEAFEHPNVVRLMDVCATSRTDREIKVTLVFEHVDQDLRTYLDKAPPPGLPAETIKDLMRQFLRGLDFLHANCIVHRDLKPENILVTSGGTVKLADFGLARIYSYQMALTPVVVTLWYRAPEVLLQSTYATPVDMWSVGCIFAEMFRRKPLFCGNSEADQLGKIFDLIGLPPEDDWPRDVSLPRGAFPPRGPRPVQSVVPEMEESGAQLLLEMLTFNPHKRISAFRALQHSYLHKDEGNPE
HDAC11: Histone deacetylase 11 (HDAC11, Homo sapiens, UniProt Q96DB2)
Chain of UniProt Q96DB2 (whole entry, looked up): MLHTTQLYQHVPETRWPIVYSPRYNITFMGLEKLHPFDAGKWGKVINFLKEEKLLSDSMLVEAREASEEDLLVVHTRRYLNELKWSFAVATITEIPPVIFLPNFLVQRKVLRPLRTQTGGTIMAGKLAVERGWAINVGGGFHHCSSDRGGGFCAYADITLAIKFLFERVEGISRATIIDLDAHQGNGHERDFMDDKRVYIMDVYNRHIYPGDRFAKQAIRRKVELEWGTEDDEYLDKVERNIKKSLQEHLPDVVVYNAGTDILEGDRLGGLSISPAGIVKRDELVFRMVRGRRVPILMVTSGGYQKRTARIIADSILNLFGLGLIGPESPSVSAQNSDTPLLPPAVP
Mc1r: Melanocyte-stimulating hormone receptor (Mc1r, Mus musculus, UniProt Q01727)
Chain of UniProt Q01727 (whole entry, looked up): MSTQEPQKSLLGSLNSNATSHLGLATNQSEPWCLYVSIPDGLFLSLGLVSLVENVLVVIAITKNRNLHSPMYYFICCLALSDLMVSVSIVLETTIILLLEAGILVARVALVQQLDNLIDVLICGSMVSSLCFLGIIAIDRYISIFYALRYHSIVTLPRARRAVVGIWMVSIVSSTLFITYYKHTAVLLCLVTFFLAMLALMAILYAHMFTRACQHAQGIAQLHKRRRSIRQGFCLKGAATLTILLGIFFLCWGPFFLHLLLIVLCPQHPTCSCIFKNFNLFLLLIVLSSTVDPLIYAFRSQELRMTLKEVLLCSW
MTOR: Serine/threonine-protein kinase mTOR (MTOR, Homo sapiens, UniProt P42345)
Gria2: Glutamate receptor 2 (Gria2, Rattus norvegicus, UniProt P19491)
Chain of UniProt P19491 (whole entry, looked up): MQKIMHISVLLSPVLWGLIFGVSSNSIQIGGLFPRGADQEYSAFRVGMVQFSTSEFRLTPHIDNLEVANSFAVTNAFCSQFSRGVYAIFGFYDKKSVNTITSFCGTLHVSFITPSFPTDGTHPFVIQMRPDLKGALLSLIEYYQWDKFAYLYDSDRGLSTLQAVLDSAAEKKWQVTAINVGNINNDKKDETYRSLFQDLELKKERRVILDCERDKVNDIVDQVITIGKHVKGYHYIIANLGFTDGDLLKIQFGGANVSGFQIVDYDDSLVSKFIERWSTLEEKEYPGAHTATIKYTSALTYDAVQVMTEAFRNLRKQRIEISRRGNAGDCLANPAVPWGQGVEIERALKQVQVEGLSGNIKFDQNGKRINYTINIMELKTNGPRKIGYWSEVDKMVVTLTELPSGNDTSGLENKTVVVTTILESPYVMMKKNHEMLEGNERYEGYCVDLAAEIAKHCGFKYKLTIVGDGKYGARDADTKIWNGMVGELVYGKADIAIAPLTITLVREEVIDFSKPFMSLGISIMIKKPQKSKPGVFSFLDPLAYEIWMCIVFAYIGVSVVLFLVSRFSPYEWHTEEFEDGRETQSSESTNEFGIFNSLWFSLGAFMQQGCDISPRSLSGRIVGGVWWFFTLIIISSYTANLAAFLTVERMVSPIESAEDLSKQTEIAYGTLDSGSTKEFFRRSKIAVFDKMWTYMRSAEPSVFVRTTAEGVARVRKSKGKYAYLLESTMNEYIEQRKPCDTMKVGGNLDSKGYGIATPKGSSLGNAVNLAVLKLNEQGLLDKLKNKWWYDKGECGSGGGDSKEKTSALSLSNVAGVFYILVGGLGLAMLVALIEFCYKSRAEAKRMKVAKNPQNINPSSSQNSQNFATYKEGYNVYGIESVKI
MARS2: Methionine--tRNA ligase, mitochondrial (MARS2, Homo sapiens, UniProt Q96GW9)
Chain of UniProt Q96GW9 (whole entry, looked up): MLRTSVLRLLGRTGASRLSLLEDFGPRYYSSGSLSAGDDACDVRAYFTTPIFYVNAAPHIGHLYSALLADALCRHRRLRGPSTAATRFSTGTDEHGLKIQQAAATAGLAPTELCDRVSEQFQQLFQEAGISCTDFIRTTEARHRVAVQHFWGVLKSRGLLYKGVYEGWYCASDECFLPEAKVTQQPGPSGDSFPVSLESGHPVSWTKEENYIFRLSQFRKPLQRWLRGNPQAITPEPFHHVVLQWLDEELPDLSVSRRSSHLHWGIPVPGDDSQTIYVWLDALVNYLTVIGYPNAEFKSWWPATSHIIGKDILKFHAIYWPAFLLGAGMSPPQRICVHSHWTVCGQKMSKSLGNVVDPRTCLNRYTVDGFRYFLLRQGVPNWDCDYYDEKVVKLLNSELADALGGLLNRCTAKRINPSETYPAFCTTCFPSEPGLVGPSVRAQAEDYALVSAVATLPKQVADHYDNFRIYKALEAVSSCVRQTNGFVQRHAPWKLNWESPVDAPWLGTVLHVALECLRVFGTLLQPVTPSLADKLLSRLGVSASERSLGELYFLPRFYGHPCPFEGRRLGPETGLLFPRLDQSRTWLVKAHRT
Chain of UniProt P21728 (whole entry, looked up): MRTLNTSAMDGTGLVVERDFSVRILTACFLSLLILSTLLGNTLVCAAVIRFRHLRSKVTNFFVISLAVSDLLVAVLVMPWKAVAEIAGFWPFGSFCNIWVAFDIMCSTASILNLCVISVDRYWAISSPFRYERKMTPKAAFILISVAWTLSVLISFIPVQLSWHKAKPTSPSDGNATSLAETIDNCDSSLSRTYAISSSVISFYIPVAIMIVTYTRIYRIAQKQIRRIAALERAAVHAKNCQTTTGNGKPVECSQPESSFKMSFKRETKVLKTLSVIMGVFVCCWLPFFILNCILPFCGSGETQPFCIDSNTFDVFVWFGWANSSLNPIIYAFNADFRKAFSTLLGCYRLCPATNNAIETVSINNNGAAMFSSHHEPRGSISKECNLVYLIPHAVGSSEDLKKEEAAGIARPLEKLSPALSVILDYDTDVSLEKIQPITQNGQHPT
Chain of UniProt P21397 (whole entry, looked up): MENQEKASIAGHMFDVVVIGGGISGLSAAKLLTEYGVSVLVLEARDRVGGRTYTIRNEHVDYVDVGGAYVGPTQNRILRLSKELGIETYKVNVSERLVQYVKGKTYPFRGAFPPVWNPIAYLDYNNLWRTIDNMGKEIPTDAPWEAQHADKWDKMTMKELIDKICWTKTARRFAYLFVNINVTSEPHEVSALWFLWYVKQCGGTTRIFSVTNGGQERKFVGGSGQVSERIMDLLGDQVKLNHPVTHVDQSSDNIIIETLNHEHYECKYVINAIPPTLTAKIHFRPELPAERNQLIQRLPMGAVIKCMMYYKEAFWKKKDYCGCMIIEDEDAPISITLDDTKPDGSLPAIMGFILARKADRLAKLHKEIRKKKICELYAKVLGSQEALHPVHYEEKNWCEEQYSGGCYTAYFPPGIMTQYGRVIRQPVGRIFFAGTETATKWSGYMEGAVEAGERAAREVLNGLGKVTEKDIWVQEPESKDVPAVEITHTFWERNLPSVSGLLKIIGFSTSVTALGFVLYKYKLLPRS
Chain of UniProt P35346 (whole entry, unmodified, looked up): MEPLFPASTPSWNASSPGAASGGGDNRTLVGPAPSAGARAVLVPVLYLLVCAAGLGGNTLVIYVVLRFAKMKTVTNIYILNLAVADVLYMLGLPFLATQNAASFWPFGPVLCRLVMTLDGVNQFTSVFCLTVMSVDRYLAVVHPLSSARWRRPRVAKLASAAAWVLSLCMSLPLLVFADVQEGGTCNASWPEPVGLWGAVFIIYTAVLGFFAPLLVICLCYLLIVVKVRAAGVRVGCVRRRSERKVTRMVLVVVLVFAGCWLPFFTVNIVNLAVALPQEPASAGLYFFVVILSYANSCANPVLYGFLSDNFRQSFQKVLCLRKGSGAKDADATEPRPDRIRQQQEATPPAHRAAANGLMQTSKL
Chain of UniProt P80075 (whole entry, looked up): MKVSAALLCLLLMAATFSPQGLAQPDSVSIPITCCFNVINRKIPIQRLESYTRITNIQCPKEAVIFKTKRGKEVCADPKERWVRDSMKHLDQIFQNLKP

CN(CC(F)(F)F)C(=O)CN1CN(c2ccccc2)C2(CCN(C(=O)c3ccc4[nH]ncc4c3)CC2)C1=O
IC50 (DDR2; ligand displacement): 1650 nM

O=C(Cc1ccc(OCc2ccccc2)cc1)NC1(C(=O)O)CCN(C(=O)c2ccc(-c3cccc(Cl)c3)cc2)CC1
IC50 (ADORA3 (Homo sapiens, UniProt P0DMS8); antagonist, GloSensor cAMP): > 10000 nM

CCOc1cc(CN2CCC3(CC2)CN(c2ccc(C(=O)O)cc2)C(=O)N3)c(C2CC2)cc1C
IC50 (SSTR5 (Homo sapiens, UniProt P35346, N100T/Q99S); cAMP level, agonist, GloSensor; AD293; Q99S/N100T mutant, added: CST17 EC80 and forskolin): 30.2 nM

CC1CN(C(=O)Cn2ncc3cccn3c2=O)CC(C)O1 (centres unmarked)
IC50 (VKORC1; carboxylation, inhibitor, cell-based): 5500 nM

N=C(N)NCCC[C@@H]1NC(=O)[C@H](Cc2csc3ccccc23)NC(=O)[C@@H](Cc2ccccc2)NC(=O)[C@H](Cc2ccccc2)NC(=O)[C@H](CCC(=O)N[C@@H](CCCCN)C(N)=O)NC(=O)[C@@H](CCCNC(=N)N)NC(=O)[C@H](CCCNC(=N)N)NC(=O)[C@@H](CCCNC(=N)N)NC1=O
IC50 (NAA40 (Homo sapiens, UniProt Q86UY6); enzyme activity, inhibitor, fluorescence): 9500 nM

COC(=O)CCCCCNC(=O)Cc1ccc(Nc2ncc(F)c(-c3cc(F)c4nc(C)n(C(C)C)c4c3)n2)cc1
IC50 (CDK4): 2 nM

CNC(=O)CN1CN(c2ccccc2)C2(CCN(C(=O)c3cnc4[nH]ccc4c3)CC2)C1=O
IC50 (DDR2; ligand displacement): > 167000 nM

CCCCCCN(O)C(=O)CCCCC[C@@H]1NC(=O)[C@H]([C@@H](C)CC)NC(=O)[C@H](Cc2ccccc2C(F)(F)F)NC(=O)CCSCc2cccc(n2)CSCCCNC1=O
IC50 (HDAC11; enzyme activity, inhibitor, fluorescence): 73 nM

Cc1c(C(=O)N[C@H](C(=O)Nc2cccc(C(N)=O)c2)c2ccc(OCc3ccccc3)cc2)cnn1-c1ccccc1
IC50 (Genome polyprotein, NS2B-NS3 protease (dengue virus type 2, UniProt P29990); enzyme activity; added: AMC substrate 50 µM): 16000 nM

CCCC[C@H](NC(=O)[C@@H]1CCCN1C(=O)[C@H](CCCNC(=N)N)NC(=O)[C@H](CS)NC(=O)[C@H](Cc1c[nH]c2ccccc12)NC(=O)[C@H](CCCNC(=N)N)NC(=O)[C@@H](Cc1ccccc1)NC(=O)[C@H](Cc1c[nH]cn1)NC(=O)[C@H](CCC(=O)O)NC(=O)[C@H](CS)NC(=O)[C@H](CS)NC(C)=O)C(=O)NCC(=O)NCC(N)=O
IC50 (Mc1r; ligand displacement, radioligand): 4.1 nM

CC(=O)N1c2ccc(-c3ccc(CNC(=O)c4cn5cc(-c6cnc(N)nc6)nc(N6CCOCC6)c5n4)cc3)cc2CC[C@@H]1C
IC50 (MTOR; enzyme activity, inhibitor, radiometric): > 10000 nM

Cc1nc2c(F)cc(-c3nc(Nc4ccc(NC(=O)CCCCCCC(=O)NO)cc4)ncc3F)cc2n1C(C)C
IC50 (CDK4): < 1.2 nM

C[C@H](Cn1nnc2ccccc21)NC(=O)Cn1cnc2ccccc2c1=O
IC50 (VKORC1; carboxylation, inhibitor, ELISA; HEK293 stably expressing; 24 h, added: vitamin K epoxide 5 µM): 9020 nM

O=C(O)Cc1cc2c(cc1C(=O)c1cccc(Br)c1)OCO2
IC50 (Gria2; glutamate-evoked current, inhibitor, whole-cell patch clamp; HEK293T, homomeric receptor): 4270 nM

COC(=O)CCCCCCCC(=O)Nc1ccc(Nc2ncc(F)c(-c3cc(F)c4nc(C)n(C(C)C)c4c3)n2)cc1
IC50 (CDK4): 4.3 nM

O=C(O)CCNC(=S)NCCCC[C@H](NS(=O)(=O)c1cccc(F)c1)C(=O)N[C@@H](Cc1c[nH]c2ccccc12)C(=O)NC1CCC1
IC50 (SIRT5 (Homo sapiens, UniProt Q9NXA8); inhibitor, fluorogenic; pre-incubation 24 h, added: NAD+ 500 µM): 150 ± 10 nM

O=C(Nc1c[nH]nc1C(=O)NC1CCNCC1)c1cc(F)cc(F)c1
IC50 (CDKL5 (Homo sapiens, UniProt O76039); target engagement in cells, BRET): 3.5 nM

CC(C)[C@H](NC(=O)[C@@H]1CCCN1C(=O)[C@H](CCCCN)NC(=O)[C@H](Cc1ccccc1)NC(=O)[C@H](Cc1ccccc1)NC(=O)[C@H](CC(=O)O)NC(=O)[C@H](CCC(=O)O)NC(=O)[C@H](Cc1ccc(O)cc1)NC(=O)[C@H](CC(=O)O)NC(=O)[C@H](CCC(=O)O)NC(=O)[C@H](CC(=O)O)NC(=O)[C@@H](N)CCC(=O)O)C(=O)N[C@H](C(=O)N[C@@H](C)C(=O)N[C@@H](Cc1ccc(O)cc1)C(=O)N[C@@H](Cc1ccccc1)C(N)=O)[C@@H](C)O
IC50 (C-C motif chemokine 8 (CCL8, Homo sapiens, UniProt P80075); cell migration, inhibitor; THP-1; added: CCL8 at EC80): 459 nM

CN1CCc2cc(Br)c(O)cc2C(c2ccc(NC(=O)CCOCCOCCOCCOCCn3cc(COCCOCCOCCOCCOCCC(=O)NCCc4c[nH]cn4)nn3)cc2)C1 (centres unmarked)
IC50 (DRD1 (Homo sapiens, UniProt P21728); cell-based): 955 nM

C[C@@H](CNCc1cc(Cl)cc(Cl)c1)CNc1nc2nc(F)ccc2[nH]1
IC50 (MARS2; enzyme activity, inhibitor): 19.5 nM

Cc1cc(C)n(-c2nc(-c3ccccc3)cc(=O)n2CC(=O)N2CCCCCC2)n1
IC50 (LNPEP (Homo sapiens, UniProt Q9UIQ6); enzyme activity, inhibitor, fluorescence): 55000 nM

CC(C)c1ccc(/C=C/C(=O)c2ccc(O)cc2)cc1
IC50 (MAOA (Homo sapiens, UniProt P21397); enzyme activity, inhibitor): 1590 nM

Cc1ccc(N=C2CC(=O)c3sc(C)nc3C2=O)cc1
IC50 (PRMT1 (Homo sapiens, UniProt Q99873); enzyme activity, inhibitor): > 100000 nM

O=C(O)Cc1cc2c(cc1C(=O)c1cccc(Cl)c1)OCO2
IC50 (Gria2; ion current, patch clamp): 3910 nM

Cc1nc2c(F)cc(-c3nc(Nc4ccc(CC(=O)NCCCCC(=O)NO)cc4)ncc3F)cc2n1C(C)C
IC50 (CDK4): 2 nM

Cc1c(OS(=O)(=O)Oc2ccc3ccccc3c2)cccc1C(=O)NO
IC50 (HDAC11): 827 nM

Cc1nn(-c2cccc(N)c2)c(=O)c2cnc(Nc3ccc(N4CCNCC4)cc3)nc12
IC50 (MTOR; enzyme activity, inhibitor): > 10000 nM

C[C@@H]1CN(Cc2ccc(S(=O)(=O)n3cnc(C4CC4)n3)cc2)[C@@H](C)CN1c1cc(=O)n(C)c2ccc(C#N)nc12
IC50 (DGKA (Homo sapiens, UniProt P23743); inhibitor, ADP-Glo; added: DAG micelles): 575 nM

CCCC[C@H](NC(=O)CNC(=O)CNC(=O)[C@H](CCCCNC(=O)[C@H](CC(=O)O)NC(=O)C(C)c1ccc(CC(C)C)cc1)NC(=O)CN1CCN(CC(=O)O)CCN(CC(=O)O)CCN(CC(=O)O)CC1)C(=O)N[C@H]1CC(=O)NCCCC[C@@H](C(N)=O)NC(=O)[C@H](Cc2c[nH]c3ccccc23)NC(=O)[C@H](CCCNC(=N)N)NC(=O)[C@@H](Cc2ccccc2)NC(=O)[C@H](Cc2c[nH]cn2)NC1=O (some centres unmarked)
IC50 (Mc1r; radioligand binding, competitor; B16-F10 mouse melanoma; 2 h, 25 °C, added: radiolabelled NDP-MSH): 1.52 ± 0.08 nM

COC(=O)CCCCCNC(=O)c1ccc(Nc2ncc(F)c(-c3cc(F)c4nc(C)n(C(C)C)c4c3)n2)cc1
IC50 (CDK4): 1.9 nM

Clc1cc(Cl)cc(CNCCCNc2nc3ccccc3[nH]2)c1
IC50 (MARS2; enzyme activity, inhibitor): 157 nM

COc1c(Cl)cccc1Nc1c(-c2ccncc2C#C[C@@]2(C)CCCN2C(=O)/C=C/CN(C)C)[nH]c2c1C(=O)NCC2
IC50 (ERBB2 (Homo sapiens, UniProt P04626)): 1.1 nM

Repeated from above:
CNC(=O)CN1CN(c2ccccc2)C2(CCN(C(=O)c3cnc4[nH]ccc4c3)CC2)C1=O
IC50 (DDR2; ligand displacement): > 167000 nM

COC(=O)CCCCCCCC(=O)Nc1ccc(Nc2ncc(F)c(-c3cc(F)c4nc(C)n(C(C)C)c4c3)n2)cc1
IC50 (CDK4): 4.3 nM

Cc1nc2c(F)cc(-c3nc(Nc4ccc(NC(=O)CCCCCCC(=O)NO)cc4)ncc3F)cc2n1C(C)C
IC50 (CDK4): < 1.2 nM
